Experimental data pooled from the literature.
Every numbered part comes from another study and shows a few of its results, in no order. Several values in a cell are separate wells, animals, samples, runs or records.
Chain of UniProt P49841 (whole entry, looked up): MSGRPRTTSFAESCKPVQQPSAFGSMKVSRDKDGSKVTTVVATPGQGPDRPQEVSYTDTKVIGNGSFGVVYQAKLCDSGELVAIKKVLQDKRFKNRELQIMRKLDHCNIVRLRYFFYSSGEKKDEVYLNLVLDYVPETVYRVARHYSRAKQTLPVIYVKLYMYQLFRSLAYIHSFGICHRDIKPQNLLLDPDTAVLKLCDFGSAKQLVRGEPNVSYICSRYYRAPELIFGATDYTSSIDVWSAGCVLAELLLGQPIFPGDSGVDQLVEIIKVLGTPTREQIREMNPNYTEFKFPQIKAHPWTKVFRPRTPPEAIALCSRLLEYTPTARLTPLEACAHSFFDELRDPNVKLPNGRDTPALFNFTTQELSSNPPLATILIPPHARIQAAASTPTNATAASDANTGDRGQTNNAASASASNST
Chain of UniProt P42684 (whole entry, looked up): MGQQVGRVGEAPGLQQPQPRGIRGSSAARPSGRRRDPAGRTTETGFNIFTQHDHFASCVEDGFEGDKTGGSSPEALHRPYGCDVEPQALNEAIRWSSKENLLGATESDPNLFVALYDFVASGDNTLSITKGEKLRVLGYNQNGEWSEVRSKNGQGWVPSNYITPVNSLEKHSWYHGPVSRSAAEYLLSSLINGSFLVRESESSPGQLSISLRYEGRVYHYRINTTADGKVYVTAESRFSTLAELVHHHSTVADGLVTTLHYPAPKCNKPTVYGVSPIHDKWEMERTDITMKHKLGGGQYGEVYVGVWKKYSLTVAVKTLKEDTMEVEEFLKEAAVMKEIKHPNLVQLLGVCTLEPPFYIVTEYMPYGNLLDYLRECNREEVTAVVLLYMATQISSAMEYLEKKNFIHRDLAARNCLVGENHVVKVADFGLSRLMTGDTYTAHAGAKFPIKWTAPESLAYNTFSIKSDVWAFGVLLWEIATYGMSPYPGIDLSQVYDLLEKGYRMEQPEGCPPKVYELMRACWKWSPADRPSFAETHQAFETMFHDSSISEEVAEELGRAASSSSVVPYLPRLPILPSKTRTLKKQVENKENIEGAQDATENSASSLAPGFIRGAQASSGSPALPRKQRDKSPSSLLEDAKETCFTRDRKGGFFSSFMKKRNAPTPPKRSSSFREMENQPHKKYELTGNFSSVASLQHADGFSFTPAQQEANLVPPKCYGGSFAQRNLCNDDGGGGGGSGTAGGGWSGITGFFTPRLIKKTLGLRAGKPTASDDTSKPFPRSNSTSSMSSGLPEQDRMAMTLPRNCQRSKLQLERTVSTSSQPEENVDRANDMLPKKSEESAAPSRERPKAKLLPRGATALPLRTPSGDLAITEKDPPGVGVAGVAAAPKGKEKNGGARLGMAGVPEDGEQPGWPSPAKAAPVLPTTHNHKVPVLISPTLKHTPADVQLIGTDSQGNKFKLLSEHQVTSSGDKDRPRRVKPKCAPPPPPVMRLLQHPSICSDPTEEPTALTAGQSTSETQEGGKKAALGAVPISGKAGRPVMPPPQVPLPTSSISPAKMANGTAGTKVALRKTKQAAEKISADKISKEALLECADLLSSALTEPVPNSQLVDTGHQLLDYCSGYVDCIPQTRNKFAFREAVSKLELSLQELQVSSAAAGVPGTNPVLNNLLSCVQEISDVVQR
Chain of UniProt Q9Y6M4 (whole entry, looked up): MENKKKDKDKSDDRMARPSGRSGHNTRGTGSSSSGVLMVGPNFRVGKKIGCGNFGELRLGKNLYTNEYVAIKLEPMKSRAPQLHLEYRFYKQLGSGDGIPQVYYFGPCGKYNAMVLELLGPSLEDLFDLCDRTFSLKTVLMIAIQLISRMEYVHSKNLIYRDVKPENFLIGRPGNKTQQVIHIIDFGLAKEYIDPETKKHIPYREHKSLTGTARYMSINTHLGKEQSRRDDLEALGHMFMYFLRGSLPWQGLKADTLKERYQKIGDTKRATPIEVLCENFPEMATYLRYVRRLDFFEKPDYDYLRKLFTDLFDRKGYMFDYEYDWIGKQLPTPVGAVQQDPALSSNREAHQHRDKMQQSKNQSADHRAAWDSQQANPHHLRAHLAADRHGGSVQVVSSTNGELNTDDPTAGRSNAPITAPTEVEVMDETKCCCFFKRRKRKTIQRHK
Chain of UniProt Q9UL54 (whole entry, looked up): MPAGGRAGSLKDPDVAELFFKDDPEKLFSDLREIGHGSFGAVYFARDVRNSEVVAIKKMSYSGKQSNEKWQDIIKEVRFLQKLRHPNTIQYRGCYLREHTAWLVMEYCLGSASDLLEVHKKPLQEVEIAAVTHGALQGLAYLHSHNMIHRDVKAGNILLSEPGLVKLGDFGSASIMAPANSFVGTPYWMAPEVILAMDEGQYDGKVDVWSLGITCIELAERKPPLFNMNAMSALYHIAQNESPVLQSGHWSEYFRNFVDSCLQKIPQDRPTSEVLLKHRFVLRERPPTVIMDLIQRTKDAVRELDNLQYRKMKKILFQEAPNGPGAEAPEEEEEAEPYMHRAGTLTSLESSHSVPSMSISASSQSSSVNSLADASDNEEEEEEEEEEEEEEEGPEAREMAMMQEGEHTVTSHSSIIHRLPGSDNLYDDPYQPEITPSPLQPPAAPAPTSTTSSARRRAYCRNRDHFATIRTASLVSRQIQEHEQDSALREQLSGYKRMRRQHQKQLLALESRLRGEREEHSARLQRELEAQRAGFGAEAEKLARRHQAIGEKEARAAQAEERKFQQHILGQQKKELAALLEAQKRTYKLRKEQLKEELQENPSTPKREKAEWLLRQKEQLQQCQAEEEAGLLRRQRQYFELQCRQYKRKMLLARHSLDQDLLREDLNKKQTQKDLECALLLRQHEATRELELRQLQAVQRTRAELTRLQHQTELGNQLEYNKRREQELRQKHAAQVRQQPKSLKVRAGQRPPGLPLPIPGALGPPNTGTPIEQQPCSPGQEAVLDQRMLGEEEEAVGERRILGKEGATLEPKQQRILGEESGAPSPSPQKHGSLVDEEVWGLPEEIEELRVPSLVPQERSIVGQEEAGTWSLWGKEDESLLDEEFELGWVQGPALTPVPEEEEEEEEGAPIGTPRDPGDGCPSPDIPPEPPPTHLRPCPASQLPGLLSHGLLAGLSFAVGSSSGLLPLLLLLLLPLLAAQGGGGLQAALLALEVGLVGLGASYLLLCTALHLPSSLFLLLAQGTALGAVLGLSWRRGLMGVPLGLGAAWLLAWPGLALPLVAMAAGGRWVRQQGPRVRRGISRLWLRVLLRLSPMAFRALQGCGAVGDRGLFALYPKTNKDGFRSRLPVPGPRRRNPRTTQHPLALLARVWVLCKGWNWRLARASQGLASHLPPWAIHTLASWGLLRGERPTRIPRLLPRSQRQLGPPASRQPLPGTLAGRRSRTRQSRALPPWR
Chain of UniProt P78368 (whole entry, looked up): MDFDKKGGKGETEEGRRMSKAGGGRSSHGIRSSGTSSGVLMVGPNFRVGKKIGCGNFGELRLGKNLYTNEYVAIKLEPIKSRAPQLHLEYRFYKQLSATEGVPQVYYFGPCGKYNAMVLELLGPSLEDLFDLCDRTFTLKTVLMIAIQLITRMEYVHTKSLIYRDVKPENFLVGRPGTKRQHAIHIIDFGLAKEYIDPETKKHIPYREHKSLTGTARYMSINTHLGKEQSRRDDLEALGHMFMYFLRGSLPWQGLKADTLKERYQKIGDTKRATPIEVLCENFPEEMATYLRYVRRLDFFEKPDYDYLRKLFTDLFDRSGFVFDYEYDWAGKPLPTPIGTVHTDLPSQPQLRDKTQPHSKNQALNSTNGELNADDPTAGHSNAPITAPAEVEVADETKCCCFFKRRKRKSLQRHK

Set 1 — organism: Sarcocystis neurona; read-out: parasite growth; tested at: 10 µM; time: 96 h; notes: secondary screen
Structure (SMILES)	inhibition [%]
COc1ccc(-c2oc3c(CC=C(C)C)c(O[C@@H]4O[C@H](CO)[C@@H](O)[C@H](O)[C@H]4O)cc(O)c3c(=O)c2O[C@@H]2O[C@@H](C)[C@H](O)[C@@H](O)[C@H]2O)cc1	-15.3
CC(Oc1c(Cl)cccc1Cl)C1=NCCN1 (stereo not shown)	-6.7
[H]/N=C(/NC)NCCC[C@H](N)C(=O)O	-26.6
C[C@H](CCC(=O)O)[C@H]1CC[C@H]2[C@@H]3C(=O)C[C@@H]4CC(=O)CC[C@]4(C)[C@H]3CC(=O)[C@]12C	-33.6

Set 2 — cell line: mouse MPNST tumor cells; method: high-content immunofluorescence imaging; measured: nuclear SOX9; tested at: 10 µM; time: 12 h; notes: mean of 2 replicates; reference: DMSO control; direction: higher = more nuclear SOX9
Structure (SMILES)	nuclear SOX9 intensity
CS(=O)(=O)Nc1ccc(-c2coc3cc(OCc4cccc(C(=O)O)c4)ccc3c2=O)cc1	90.5 % of DMSO
O=C(O)CCCc1ccccc1	107 % of DMSO
CCOc1ccccc1OC(c1ccccc1)C1CNCCO1 (stereo not shown)	99.5 % of DMSO and 95.9 % of DMSO
CC(=O)/N=c1/sc(S(N)(=O)=O)nn1C	87.1 % of DMSO
CN(C)CCCn1cc(C2=C(c3c[nH]c4ccccc34)C(=O)NC2=O)c2ccccc21	153 % of DMSO
CC(C)NCC(O)COc1ccc(CC(N)=O)cc1 (stereo not shown)	89.9 % of DMSO
Nc1nnc(-c2cccc(Cl)c2Cl)c(N)n1	96 % of DMSO and 98 % of DMSO
CN/C(=N\c1ccc(C2=NNC(=O)CC2C)cc1)NC#N (stereo not shown)	100 % of DMSO

Set 3 — Compound: COc1ccc(-c2cnc3c(-c4ccsc4)cnn3c2)cc1; read-out: enzyme activity; action: inhibitor; tested at: 0.5 µM; reference: control
target	remaining activity
Serine/threonine-protein kinase Nek6 (NEK6, Homo sapiens, UniProt Q9HC98)	99.3%
Ribosomal protein S6 kinase alpha-2 (RPS6KA2, Homo sapiens, UniProt Q15349)	87.5%
Tyrosine-protein kinase ABL2 (ABL2, Homo sapiens, UniProt P42684)	63.4%
Casein kinase I isoform gamma-3 (CSNK1G3, Homo sapiens, UniProt Q9Y6M4)	102%
Rhodopsin kinase GRK7 (GRK7, Homo sapiens, UniProt Q8WTQ7)	99.9%
Dual specificity mitogen-activated protein kinase kinase 2 (MAP2K2, Homo sapiens, UniProt P36507)	95.5%
Ephrin type-A receptor 3 (EPHA3, Homo sapiens, UniProt P29320)	93.4%
Angiopoietin-1 receptor (TEK, Homo sapiens, UniProt Q02763)	99.1%
Glycogen synthase kinase-3 beta (GSK3B, Homo sapiens, UniProt P49841)	99.4%
Mitogen-activated protein kinase kinase kinase 5 (MAP3K5, Homo sapiens, UniProt Q99683)	105%
Casein kinase I isoform gamma-2 (CSNK1G2, Homo sapiens, UniProt P78368)	82.3%
Tyrosine-protein kinase JAK3 (JAK3, Homo sapiens, UniProt P52333)	98.5%
Activin receptor type-1B (ACVR1B, Homo sapiens, UniProt P36896)	100%
Tyrosine-protein kinase FRK (FRK, Homo sapiens, UniProt P42685)	85.6%

Set 4 — read-out: cell-free assay; method: competition with immobilised ligand; tested at: 1 µM
SMILES: CN(C(=O)c1ccccc1)c1cc(N(C)c2ccc3c(c2)CCc2ccc(C(=O)NCCN4CCOCC4)cc2C3=O)ccc1F
target	remaining binding
Epidermal growth factor receptor (EGFR, Homo sapiens, UniProt P00533)	100%
Serine/threonine-protein kinase TAO2 (TAOK2, Homo sapiens, UniProt Q9UL54)	83%
Serine/threonine-protein kinase PAK 3 (PAK3, Homo sapiens, UniProt O75914)	100%
G protein-coupled receptor kinase 4 (GRK4, Homo sapiens, UniProt P32298)	100%
Receptor tyrosine-protein kinase erbB-2 (ERBB2, Homo sapiens, UniProt P04626)	100%
Mitogen-activated protein kinase 15 (MAPK15, Homo sapiens, UniProt Q8TD08)	100%
Proto-oncogene tyrosine-protein kinase receptor Ret (RET, Homo sapiens, UniProt P07949, V804L)	100%
Serine/threonine-protein kinase RIO2 (RIOK2, Homo sapiens, UniProt Q9BVS4)	100%

A few entries again (set 1):
Structure (SMILES)	inhibition [%]
CC(Oc1c(Cl)cccc1Cl)C1=NCCN1 (stereo not shown)	-6.7
[H]/N=C(/NC)NCCC[C@H](N)C(=O)O	-26.6
